Assay results gathered from unrelated publications.
Each line is one published result; not all experiments were run side by side. ± gives the spread as reported.
B1: UGT1A9 (Homo sapiens, UniProt O60656); chain GKLLVVPMDGSHWFTMRSVVEKLILRGHEVVVVMPEVSWQLGRSLNCTVKTYSTSYTLEDLDREFKAFAHAQWKAQVRSIYSLLMGSYNDIFDLFFSNCRSLFKDKKLVEYLKESSFDAVFLDPFDNCGLIVAKYFSLPSVVFARGILCHYLEEGAQCPAPLSYVPRILLGFSDAMTFKERVRNHIMHLEEHLLCHRFFKNALEIASEILQTPVTEYDLYSHTSIWLLRTDFVLDYPKPVMPNMIFIGGINCHQGKPLPMEFEAYINASGEHGIVVFSLGSMVSEIPEKKAMAIADALGKIPQTVLWRYTGTRPSNLANNTILVKWLPQNDLLGHPMTRAFITHAGSHGVYESICNGVPMVMMPLFGDQMDNAKRMETKGAGVTLNVLEMTSEDLENALKAVINDKSYKENIMRLSSLHKDRPVEPLDLAVFWVEFVMRHKGAPHLRPAAHDLTWYQYHSLDVIGFLLAVVLTVAFITFKCCAYGYRKCLGKKGRVKKAHKSKTH

insulin aspart
time to GIRmax (euglycaemic glucose clamp; elderly type 1 diabetes; subcutaneous, 0.2 U/kg): 146 min

insulin glulisine
peak plasma glucose (obese type 2 diabetes patients; subcutaneous, 0.2 U/kg, before standard meal): 170 mg/dL

COc1c(C)c(C)c2c(c1C)CCC(C)(C(=O)NN=C1C(=O)Nc3cc(Cl)ccc31)O2 (stereo not drawn)
minimal effective dose (seizure protection; male CF-1 mice; intraperitoneal, 4 h, with: pentylenetetrazole 60 mg/kg subcutaneous): 100 mg/kg

CCCCCCCCCCCCCCCC(=O)N[C@@H](CCC(=O)NCCCC[C@H](NC(=O)[C@H](C)NC(=O)[C@H](C)NC(=O)[C@H](CCC(N)=O)NC(=O)CNC(=O)[C@H](CCC(=O)O)NC(=O)[C@H](CC(C)C)NC(=O)[C@H](Cc1ccc(O)cc1)NC(=O)[C@H](CO)NC(=O)[C@H](CO)NC(=O)[C@@H](NC(=O)[C@H](CC(=O)O)NC(=O)[C@H](CO)NC(=O)[C@@H](NC(=O)[C@H](Cc1ccccc1)NC(=O)[C@@H](NC(=O)CNC(=O)[C@H](CCC(=O)O)NC(=O)[C@H](C)NC(=O)[C@@H](N)Cc1c[nH]cn1)[C@@H](C)O)[C@@H](C)O)C(C)C)C(=O)N[C@@H](CCC(=O)O)C(=O)N[C@@H](Cc1ccccc1)C(=O)N[C@H](C(=O)N[C@@H](C)C(=O)N[C@@H](Cc1c[nH]c2ccccc12)C(=O)N[C@@H](CC(C)C)C(=O)N[C@H](C(=O)N[C@@H](CCCNC(=N)N)C(=O)NCC(=O)N[C@@H](CCCNC(=N)N)C(=O)NCC(=O)O)C(C)C)[C@@H](C)CC)C(=O)O
body weight reduction (diet-induced obese mice; subcutaneous, 80 nmol/kg once daily, 57 days; reference: vehicle): 8 ± 4.87%

Cc1ccc(-c2nn(-c3ccccc3)cc2C=NNC2=NC(=O)C(=C3c4ccccc4-c4nc5cc(F)ccc5nc43)S2)cc1
blood glucose (mice with STZ-induced diabetes; oral, 25 mg/kg, 216 h, day 9): 332 ± 79.1 mg/dL

Cc1c(C)c2c(c(C)c1OCc1ccccc1)CCC(C)(C(=O)NN=C1C(=O)Nc3ccc(Cl)cc31)O2 (stereo not drawn)
minimal effective dose (seizure protection; male CF-1 mice; intraperitoneal, 4 h, with: pentylenetetrazole 60 mg/kg subcutaneous): 100 mg/kg

CCN(O)N=Nc1ccc(S(=O)(=O)Nc2onc(C)c2C)cc1
inhibition (paw oedema; rat, carrageenan oedema; oral, 100 mg/kg, 2 h after carrageenan; reference: vehicle): 22.3%

CC1(C)O[C@@H]2[C@@H](CO[C@@]3(COS(N)(=O)=O)OC(C)(C)O[C@@H]23)O1
GTCS progressing to tonic hindlimb extension (Scn1a+/- mice; oral in chow, dose not given, spontaneous seizures, subchronic; reference: untreated): decreased

AGEDPHGYFLPGQFA
optimal dose (cytokine expression suppression; peptide, mouse peritoneal macrophages, C57BL/6 mice; 1 h pretreatment, with: LPS/IFN-γ 15 h): 1 pM

B1 (UGT1A9)
Vmax (COc1cc2c(=O)c(-c3ccc(O)cc3)coc2cc1O; steady-state kinetics; pH 7.4, 37 °C): 0.000403 µmol/min/mg

COc1c(C)c(C)c2c(c1C)CCC(C)(C(=O)NN=C1C(=O)Nc3ccc(F)cc31)O2 (stereo not drawn)
minimal effective dose (seizure protection; male CF-1 mice; intraperitoneal, 4 h, with: maximal electroshock): 100 mg/kg

Cc1cc(C(=O)/C(=C\c2cccc(F)c2)c2cccc(F)c2)c(C(=O)N2CCCCC2)c(=O)[nH]1
IC50 (cell proliferation, MTT; 35404 melanoma brain metastasis, human patient-derived; 72 h, tested up to 10 µM): > 10 µM

Cc1cc(C)c(/C=C2\C(=O)Nc3ccccc32)[nH]1
tumour volume (MRI; human; dose not given, 3.9 months): 76 cm³

FSRALRTK
inhibition of RANTES release (ELISA or Luminex; peptide, mouse peritoneal macrophages, C57BL/6 mouse; optimal dose within 0.1 pM to 100 nM, 1 h pretreatment, 15 h stimulation, with: LPS 100 ng/mL + IFN-γ 20 ng/mL; reference: LPS/IFN-γ stimulated control): 0%

NCCCC[C@@H]1NC(=O)[C@@H](Cc2c[nH]c3ccccc23)NC(=O)[C@H](c2ccccc2)NC(=O)[C@@H]2C[C@@H](OC(=O)NCCN)CN2C(=O)[C@H](Cc2ccccc2)NC(=O)[C@H](Cc2ccc(OCc3ccccc3)cc2)NC1=O
GH AUC(0-2h) change (GHRH-stimulated GH secretion; healthy human volunteers; subcutaneous, 200 µg, with: GHRH 1 µg/kg; reference: pre-dose baseline): -79.1%

Cc1c(C)c2c(c(C)c1O)CCC(C)(C(=O)NN=C1C(=O)Nc3cc(Cl)ccc31)O2 (stereo not drawn)
minimal effective dose (seizure protection; male CF-1 mice; intraperitoneal, 4 h, with: pentylenetetrazole 60 mg/kg subcutaneous): 30 mg/kg

Cc1noc(NS(=O)(=O)c2ccc(N=NN(C)O)cc2)c1C
inhibition (paw oedema; rat, carrageenan oedema; oral, 100 mg/kg, 4 h after carrageenan; reference: vehicle): 77.4%

CC(C)C[C@H](NC(=O)[C@H](CO)NC(=O)[C@H](CCCNC(=N)N)NC(=O)[C@H](CC(=O)O)NC(=O)[C@H](CCC(=O)O)NC(=O)[C@H](C)NC(=O)[C@@H]1CCCN1C(=O)[C@H](C)NC(=O)[C@H](CCC(=O)O)NC(=O)[C@@H]1CCCN1C(=O)[C@@H]1CCCN1)C(N)=O
HVA level (HPLC-EC; F344 rat, normal, substantia nigra; intranasal, 100 µg, 5 days/week for 3 weeks): 37 ± 7 ng/g

insulin glargine
glucose infusion rate AUC (euglycaemic glucose clamp; type 2 diabetic patients; subcutaneous, 0.4 U/kg, 0 to 32 h, after 1 week bedtime dosing): 1540 ± 688 mg/kg

Cc1c(C)c2c(c(C)c1O)CCC(C)(C(=O)NN=C1C(=O)Nc3ccc(Br)cc31)O2 (stereo not drawn)
minimal effective dose (seizure protection; male CF-1 mice; intraperitoneal, 4 h, with: maximal electroshock): > 300 mg/kg

NNC1=NC(=O)C(=C2c3ccccc3-c3nc4cc(F)ccc4nc32)S1
blood glucose (mice with STZ-induced diabetes; oral, 25 mg/kg, 216 h, day 9): 305 ± 16.4 mg/dL

Some of these lines once more:
Cc1c(C)c2c(c(C)c1O)CCC(C)(C(=O)NN=C1C(=O)Nc3ccc(Br)cc31)O2 (stereo not drawn)
minimal effective dose (seizure protection; male CF-1 mice; intraperitoneal, 4 h, with: maximal electroshock): > 300 mg/kg
